Measurements of several laboratories.
A part holds a random share of what one study measured.

Series 1 — technique: universal PBM; form: double-stranded DNA, one strand shown; matrix: in vitro; tested at: not given; reading: higher = stronger binding
Target: Sal-like protein 4, full length isoform B (SALL4, Homo sapiens, UniProt Q9UJQ4-2, residues 1-616)
Notes: 8-mer, flanks averaged, mean of replicates
`CCTAAGCC` has an E-score of -0.296.
With `CCTACTGC` the E-score was -0.0693.
`CGATGTTC` gave an E-score of -0.274.
The E-score of `AACCGCCG` is reported as -0.27.
With `AGCGCAAC` the E-score was -0.0693.
The E-score of `GGCGCATA` is reported as 0.0132.
With `GCAAGGAC` the E-score was -0.216.

Series 2 — technique: RNAcompete; form: RNA; matrix: in vitro; tested at: 20 nM; notes: 7-mer, probes averaged, single round; relative to: mean of 7-mers; reading: higher = stronger binding
Target: PABPC1L2, full length, GST fusion (mouse, UniProt A0ABA7IW68)
Construct (chain): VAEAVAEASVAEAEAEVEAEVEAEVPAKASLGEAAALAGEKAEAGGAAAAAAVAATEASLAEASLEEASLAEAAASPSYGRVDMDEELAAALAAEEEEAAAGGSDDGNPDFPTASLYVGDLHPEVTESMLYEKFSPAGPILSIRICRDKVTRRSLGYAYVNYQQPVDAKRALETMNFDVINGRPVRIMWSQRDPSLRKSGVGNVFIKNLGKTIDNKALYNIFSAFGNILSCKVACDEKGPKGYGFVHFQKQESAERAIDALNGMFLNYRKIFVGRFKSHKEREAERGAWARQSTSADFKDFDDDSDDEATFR
`AACCGCG` gave a 7-mer Z-score of 0.0841.
For `GAAAGAG`, the 7-mer Z-score was 1.34.
The 7-mer Z-score of `UUCGCCU` is reported as -0.472.
With `UCCGGAA` the 7-mer Z-score was -0.0264.
The 7-mer Z-score of `GUUGUUG` is reported as -0.367.
For `CUUGACG`, the 7-mer Z-score was -0.255.

Series 3 — technique: protein binding microarray; form: double-stranded DNA, one strand shown; matrix: in vitro; tested at: not given; relative to: not given; reading: higher = stronger binding
Target: Histone acetyltransferase KAT6A, both winged helices, GST fusion (KAT6A, Homo sapiens, UniProt Q92794, residues 1-181)
Notes: 8-mer, flanks averaged, mean of 2 arrays, mostly near background
Target sequence (chain): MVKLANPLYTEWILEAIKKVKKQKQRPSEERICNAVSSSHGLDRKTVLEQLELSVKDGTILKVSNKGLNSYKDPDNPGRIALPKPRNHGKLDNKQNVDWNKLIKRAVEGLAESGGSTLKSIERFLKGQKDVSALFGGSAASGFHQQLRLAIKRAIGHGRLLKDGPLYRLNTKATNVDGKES
For `CGTCATCA`, the E-score was 0.0508.
The E-score of `CAGTGTTC` is reported as -0.0164.
`AGCATCGA` has an E-score of -0.123.
For `CCAGGCGC`, the E-score was 0.0989.
For `CCAACAAA`, the E-score was -0.193.
`GGTTTAAC` gave an E-score of 0.0249.
With `AAACATTC` the E-score was -0.175.

Further values, each from its own experiment
`PhoQ, residues 284 288 289 292 302 303 ASHLAV` gave a fold induction of 3.26 (PhoP, residues 12 14 15 18 19 NQGLL (Escherichia coli, UniProt P23836); Sort-seq, measured: YFP reporter; E. coli; PhoQ-PhoP variant library, added: 10 µM Mg2+; relative to: high Mg2+ state, higher = stronger signaling).
